# Measurements from different studies.
# ± marks the error that the study gave.
SMILES,organism,test,test system,conditions,EC50
O=C(N/N=C1\C(=O)Nc2ccc([N+](=O)[O-])cc21)N/N=C1\C(=O)Nc2ccc([N+](=O)[O-])cc21,respiratory syncytial virus,viral replication,HeLa,,> 100 µM
NC(=O)NO,human cytomegalovirus,"viral spread, GFP reporter","MRC-5, BADrUL131-Y4 (AD169, GFP)",14 d,171 ± 46 µM
NC(=O)c1ncn([C@@H]2O[C@H](CO)[C@@H](O)[C@H]2O)n1,respiratory syncytial virus,viral cytopathic effect,HeLa,,2.9 ± 1.3 µM
NC1=NC(=O)N(C[C@@H](CF)OCP(=O)(O)O)CN1,herpes simplex virus 1,cytopathic effect,"HEL, KOS, TK-deficient, acyclovir-resistant",,> 100 µM
CN1c2ccc(-c3ccc(C#N)cc3)cc2[C@H]2[C@H](CCN2C(=O)c2cccc(F)c2)[C@@H]1CO,respiratory syncytial virus,cytopathic effect,"HEp-2, A2","5 days, original sample",1.3 µM
N/C(=N\O)c1cc(O)c(O)c(O)c1,human cytomegalovirus,"viral spread, GFP reporter","ARPE-19, BADrUL131-Y4 (AD169, GFP)",14 d,125 ± 19 µM
O=C(C=Cc1ccc2ccccc2n1)c1cc(Cl)ccc1O,Alphacoronavirus 1,"viral replication, inhibitor",CRFK,,4.03 µM
Cc1cn(Cc2ccc(O)c(C=O)c2)c(=O)[nH]c1=O,human cytomegalovirus,cytopathic effect,"HEL fibroblasts, Davis",,> 100 µM
CC1SC2(CCCCC2)N(NC(=O)Cc2csc3nc(-c4ccc(Br)cc4)cn23)C1=O (stereo not drawn),feline herpesvirus,viral cytopathic effect,CRFK,,> 100 µg/mL
O=C(NCc1ccc(Br)cc1F)c1cn(Cc2ccc(F)cc2)cc(O)c1=O,Human betaherpesvirus 5,"viral replication, inhibitor",,7 days,0.61 µM
CN[C@@H]1[C@H](O[C@@H]2OC[C@@H](O)[C@H](O)[C@H]2O)[C@@H](O)[C@H](O[C@H]2c3cc(C)c(C(=O)N[C@H](C)C(=O)O)c(O)c3-c3c(cc4c(c3O)C(=O)c3cc(OC)cc(O)c3C4=O)[C@@H]2O)O[C@@H]1C,Alphacoronavirus 1,"viral replication, inhibitor, luciferase",,6 h,> 120 µM
COc1ccc2c3c([nH]c2c1)[C@H](CO)N(Cc1ccccc1)CC31CCN(C(=O)Cc2ccccc2)CC1,respiratory syncytial virus,cytopathic effect,"HEp-2, A2","5 days, original sample",13.7 µM
OC[C@@H]1[C@@H](O)[C@H](O)[C@@H](O)CN1CCCCCCOc1cc(F)ccc1F,bovine viral diarrhea virus,,MDBK,22 h,1.3 ± 0.7 µM
CNC(=O)c1ccc(-c2cnn3ccc(C(=O)N(C)c4ccc(Cl)c(C(=O)O)c4)cc23)cc1,Cryptosporidium parvum,cytopathic effect,HCT-8,48 h,> 20 µM
O=S(=O)(c1cccs1)N1CCCCN2[C@H](CO)[C@@H](c3ccc(/C=C/c4ccccc4)cc3)[C@@H]2C1,respiratory syncytial virus,cytopathic effect,"HEp-2, A2","5 days, resynthesized sample",2.8 µM
O=C(C1=C(O)c2ccccc2S(=O)(=O)N1)c1cccc(Cl)c1,HIV-1,viral replication,PBMC,,> 100 µM
COc1c(C)c2c(c(O)c1C/C=C(\C)CCC(=O)O)C(=O)OC2,Zika virus,"viral cytopathic effect, visual CPE scoring",Vero,,1.8 µM
O=C(N/N=C1\C(=O)Nc2ccccc21)N/N=C1\C(=O)Nc2ccccc21,respiratory syncytial virus,viral replication,HeLa,,> 100 µM
CC(NC(=O)c1cn(Cc2ccc(F)cc2)cc(O)c1=O)c1ccc(F)cc1F (stereo not drawn),Human betaherpesvirus 5,"viral replication, inhibitor",,7 days,0.53 µM
NCCOCC(=O)NC1CCN(S(=O)(=O)c2cc(C(=O)Nc3cc(F)c(F)c(F)c3)ccc2F)CC1,Hepatitis B virus,"viral replication, inhibitor, qPCR",HePAD38,,4.89 µM
Cc1ccc(S(=O)(=O)N2C(=O)CSC2c2ccc(C(C)C)cc2)cc1 (stereo not drawn),herpes simplex virus 1,viral cytopathicity,"HEL, KOS",,> 100 µM
O=C(CN1c2c(n[nH]c2-c2cccc(Cl)c2)-c2ccccc2S1(=O)=O)NN=Cc1ccc(C(=O)O)cc1,HIV-1,viral replication,PBMC,,8.3 µM
COC(=O)c1c[nH]c2cc(CN3CCN(Cc4ccc(OC)cc4)CC3)ccc2c1=O,Plasmodium berghei,,"HepG2, liver stage",44 h,0.044 to 0.083 µM
COc1cc(/C=C2\CC/C(=C\c3ccc(O)c(OC)c3)C2=O)ccc1O,dengue virus 2,"viral replication, plaque reduction",BHK-21,,5.37 ± 0.62 µM
O=C(Cc1csc2nc(-c3ccc(Br)cc3)cn12)NN=C1CCC(c2ccc(O)cc2)CC1 (stereo not drawn),feline herpesvirus,viral cytopathic effect,CRFK,,> 100 µg/mL
O=C(Nc1ccc(F)cc1)Oc1ccc[nH]c1=O,Alphacoronavirus 1,"viral replication, inhibitor",CRFK,,> 100 µM
COC(=O)N[C@H](C(=O)N1CCC[C@H]1c1ncc(-c2ccc(-c3ccc(-c4cnc([C@@H]5CCCN5C(=O)[C@@H](NC(=O)OC)C(C)C)[nH]4)cc3)cc2)[nH]1)C(C)C,hepatitis C virus,"viral replication, transient replicon",genotype 1a NS5A M28T,,0.0041 ± 0.00036 µM
O=C(NCc1ccc(F)cc1F)c1cn(Cc2ccc(F)cc2)ccc1=O,Human betaherpesvirus 5,"viral replication, inhibitor",,7 days,6.6 µM
Cc1ccc(S(=O)(=O)N2C(=O)CSC2c2ccc(Cl)cc2)cc1 (stereo not drawn),herpes simplex virus 1,viral cytopathicity,"HEL, KOS TK-deficient acyclovir-resistant",,> 100 µM
Nc1ccn(C[C@@H](CO)OCP(=O)(O)O)c(=O)n1,human cytomegalovirus,cytopathic effect,"HEL fibroblasts, AD-169",,0.84 ± 0.21 µM
O=C(NCc1ccc(F)cc1F)c1cn(Cc2ccccc2)cc(O)c1=O,Human betaherpesvirus 5,"viral replication, inhibitor",,7 days,1 µM
Cc1ccc(S(=O)(=O)N2C(=O)CSC2c2ccccc2Cl)cc1 (stereo not drawn),herpes simplex virus 1,viral cytopathicity,"HEL, KOS",,> 100 µM
NC(=O)c1ncn([C@@H]2O[C@H](CO)[C@@H](O)[C@H]2O)n1,respiratory syncytial virus,viral replication,HeLa,,4 µM
Cc1cccc(C)c1OCC(=O)N[C@@H](Cc1ccccc1)[C@@H](O)C[C@H](Cc1ccccc1)NC(=O)[C@H](C(C)C)N1CCCNC1=O,Alphacoronavirus 1,"viral replication, inhibitor",CRFK,2 h,6.22 µM
Cc1ccc(S(=O)(=O)N2C(=O)CSC2c2ccc([N+](=O)[O-])cc2)cc1 (stereo not drawn),herpes simplex virus 1,viral cytopathicity,"HEL, KOS",,> 100 µM
CCN(CC)Cc1cc(Nc2ccnc3cc(Cl)ccc23)ccc1O,Dengue virus 2,"viral replication, plaque",BHK-21,72 h,1.08 ± 0.09 µM
O=C(NCc1ccc(Cl)cc1F)c1cn(Cc2ccc(F)cc2)cc(O)c1=O,Human betaherpesvirus 5,"viral replication, inhibitor",,7 days,0.55 µM
Cc1ccc(S(=O)(=O)N2C(=O)CSC2c2ccccc2O)cc1 (stereo not drawn),herpes simplex virus 1,viral cytopathicity,"HEL, KOS TK-deficient acyclovir-resistant",,> 100 µM
COc1cc(O)c2c(c1O)C(=O)C(CC(C)O)=C(C)C2=O (stereo not drawn),Trichomonas vaginalis,viability,,17 h,40 µM
